Measured values collected from several papers.
Compare with care: the assays were run in different laboratories. “And” joins repeats or separate records; there may be more than shown. ± gives the spread as reported.
FURIN: Furin (FURIN, Homo sapiens, UniProt P09958)
HTR1A: 5-hydroxytryptamine receptor 1A (HTR1A, Homo sapiens, UniProt P08908)
Fructose-1,6-bisphosphate aldolase/phosphatase: Fructose-1,6-bisphosphate aldolase/phosphatase (Helicobacter pylori, UniProt Q9ZMG8)
Oprk1: Kappa-type opioid receptor (Oprk1, Mus musculus, UniProt P33534)

`COC[C@H]1O[C@@H](O[C@@H]2OC[C@@H]3O[C@@]4(OC[C@@H](OC(=O)c5c(C)cc(O)cc5O)[C@@H]5OCO[C@H]54)O[C@H]3[C@H]2O)[C@@H](OC)[C@@H](O)[C@@H]1O[C@@H]1O[C@H](C)[C@H](OC)[C@H](O[C@@H]2O[C@H](C)[C@H]3O[C@]4(C[C@@H](O)[C@H](O[C@H]5C[C@@H](O[C@H]6C[C@](C)([N+](=O)[O-])[C@@H](OC)[C@H](C)O6)[C@H](OC(=O)c6c(C)c(Cl)c(O)c(Cl)c6OC)[C@@H](C)O5)[C@@H](C)O4)O[C@]3(C)[C@@H]2O)[C@H]1O` has a Ki of 0.6 ± 0.1 µM (Escherichia coli ribosome POST complex; EF4-mediated back-translocation, stopped-flow proflavin fluorescence; together with: EF4 3 µM, GDPNP 0.5 mM).
`C[C@H]1CNCCc2ccc(Cl)cc21` gave an AUC(0-t) of 184 ng·h/mL (male Sprague-Dawley rat, plasma; subcutaneous, 3 mg/kg, single dose).
`CC(C)[C@H](NC(=O)[C@H](CCCNC(=N)N)NC(=O)[C@H](N)CCCNC(=N)N)C(=O)N[C@@H](CCCNC(=N)N)C(=O)NCc1ccc(C(=N)N)cc1` gave a Ki of 0.000108 µM (FURIN; enzyme activity, inhibitor, fluorescence).
`CCOC(=O)[C@@](C)(O)[C@@H]1C[C@@H](CO[Si](c2ccccc2)(c2ccccc2)C(C)(C)C)O[C@H]1n1cc(F)c(=O)[nH]c1=O` has a Ki of 14.1 µM (Genome polyprotein, NS5 methyltransferase domain (GP1, West Nile virus, UniProt Q9Q6P4); 2'-O methyltransferase activity, inhibitor, TLC, Cheng-Prusoff; together with: SAM 80 µM, m7GpppA-RNA 0.36 µM).
With `CN[C@@](C)(C[18F])C(=O)O` the tracer uptake was 1.5 %ID/g (DU-145 tumour model; host not given, bone; 1 h, tumour-bearing).
For `c1ccc(C2CO2)cc1` (stereo not shown), the Ki was 1000 µM (Cytochrome P450 2E1 (CYP2E1, Homo sapiens, UniProt P05181); inhibitor; 30 min, pH 7.4).
For `O=C(NC1CCNCC1)[C@@H]1CC[C@@H]2CN1C(=O)N2OS(=O)(=O)O`, the Ki was 9 ± 1 µM (ampC (Burkholderia multivorans, UniProt A0A0H3KN52); enzyme activity, inhibitor).
With `COc1ccc(C(=O)C=Cc2ccc(NC(=O)CN3CCN(C(C)=O)CC3)cc2)cc1OC` the Ki was 0.047 µM (ACHE (Homo sapiens, UniProt P22303); enzyme activity, inhibitor).
With `c1ccc(CCN2CCCCC2)cc1` the Ki was > 10 µM (adenosine receptor, bovine; binding; bovine striatum; together with: [3H]NECA 4.0 nM).
With `CC(C)[C@H](NC(=O)[C@H](CCCNC(=N)N)NC(=O)[C@@H](CCCNC(=N)N)NC(=O)[C@@H](CCCNC(=N)N)NC(=O)[C@H](N)CCCNC(=N)N)C(=O)N[C@@H](CCCNC(=N)N)C(=O)NCc1ccc(C(=N)N)cc1` the Ki was 7.54e-05 µM (FURIN; enzyme activity, inhibitor, fluorescence).
`O=C(c1ccc(S(=O)(=O)NCCF)cc1)C1CCN(C2Cc3ccccc3CC2O)CC1` (racemic) has a Ki of 0.013 µM (SLC18A3 (Homo sapiens, UniProt Q16572); ligand displacement, radioligand).
`CCC(C/C=C/c1ccccc1)(c1ccccc1)N(C)CC1CC1` (single isomer, unassigned; (+)) gave a Ki of 0.164 µM (TMEM97 (Homo sapiens, UniProt Q5BJF2); ligand displacement, radioligand).
`COc1ccc(C(=O)O[C@H]2[C@H](O[C@@H]3[C@@H](OC(C)=O)[C@H](O[C@H]4C[C@H]5[C@@H]6CC=C7C[C@@H](O)CC[C@]7(C)[C@H]6CC[C@]5(C)[C@@]4(O)[C@H](C)C(=O)CCC(C)C)OC[C@@H]3O)OC[C@@H](O)[C@@H]2O)cc1` has a Ki of 0.016 µM (OSBP (Homo sapiens, UniProt P22059); ligand displacement, radioligand).
The Ki of `COC(=O)c1ccc(C2c3c(-c4ccccc4O)n[nH]c3C(=O)N2Cc2ccncc2)cc1` (stereo not shown) is reported as 17.8 µM (HTR1A; ligand displacement, radioligand; cell membranes).
The Ki of `CSC[C@H]1O[C@@H](n2cnc3c2N=CNC[C@H]3O)C[C@@H]1O` is reported as > 10 µM (Fructose-1,6-bisphosphate aldolase/phosphatase; enzyme activity, inhibitor; J99; pH 7.0, 25 °C, slow-onset second phase, together with: 400 µM MTA).
For `O=[PH](O)O`, the Ki was 42000 ± 6000 µM (GPD1 (Homo sapiens, UniProt P21695); enzyme activity, competitive inhibitor; pH 7.5, together with: DHAP, NADH).
The Ki of `O=C(/C=C/c1ccoc1)N[C@H]1CC[C@@]2(O)[C@H]3Cc4cccc5c4[C@@]2(CCN3CC2CC2)[C@H]1O5` is reported as 0.0457 µM (Oprk1; ligand displacement, radioligand).
`C[C@H](N)Cn1ccc2cc(F)c(Cl)cc21` gave a Ki of 6.68 µM (HTR1A; ligand displacement, radioligand; cell membranes).
`O=C(/C=C/c1ccoc1)N[C@@H]1CC[C@@]2(O)[C@H]3Cc4ccc(O)c5c4[C@@]2(CCN3CC2CC2)[C@H]1O5` has a Ki of 0.00018 µM (Oprk1; ligand displacement, radioligand).
For `OC[C@H]1O[C@@H](n2cnc3c2N=CNC[C@H]3O)[C@H](O)[C@@H]1O`, the Ki was > 10 µM (Fructose-1,6-bisphosphate aldolase/phosphatase; J99).
The Ki of `O=C(OP(=O)(O)OC(=O)c1cc2ccccc2s1)c1cc2ccccc2s1` is reported as 1.47 ± 0.06 µM (Beta-lactamase TEM (bla, Escherichia coli, UniProt P62593, Q37K); enzyme activity, inhibitor).
With `C=C[C@H]1C[N@@]2CC[C@H]1C[C@@H]2[C@@H](O)c1ccnc2ccccc12` the Ki was 0.2 µM (SLC6A4 (Homo sapiens, UniProt P31645); transporter uptake, inhibitor, radiometric).
For `Nc1ncnc2c1ncn2[C@@H]1O[C@H](CSCC[C@H](N)C(=O)O)[C@@H](O)[C@H]1O`, the Ki was 0.1 to 0.5 µM (bioB (Escherichia coli, UniProt P12996); biotin synthase activity, competitive inhibitor).
`CC(=O)N[C@@H](CC(C)C)C(=O)N[C@@H](CC(C)C)C(=O)N[C@@H](CC(C)C)C(=O)N[C@@H](CC(C)C)C(=O)N[C@@H](CCCNC(=N)N)C(=O)N[C@H](C(=O)N[C@@H](CCCNC(=N)N)C(=O)NCc1ccc(C(=N)N)cc1)C(C)C` gave a Ki of 0.000164 µM (FURIN; enzyme activity, inhibitor, fluorescence).
The Ki of `CCCCN1C(=O)C(C=CC=CC=C2C(=O)N(c3ccc(S(=O)(=O)O)cc3)N=C2C)C(=O)N(CCCC)C1=O` is reported as 0.113 µM and 0.11 µM (SLC4A1 (Homo sapiens, UniProt P02730); 36Cl exchange flux, inhibitor, Dixon plot; human erythrocytes; 0 °C, outward-facing form, initial binding).
With `CO[C@H]1C[C@@H]2\C=C(C)/C=C/C=C\C(=O)N[C@H](c3ccccc3)C/C=C/CC[C@H](O)CC(=O)C2=C1O` the Ki was 11.7 µM (Replicase polyprotein 1ab, main protease (Feline coronavirus, UniProt Q98VG9); enzyme activity, inhibitor, fluorescence).
`Cc1cccc(NC(=O)c2ccc(OCc3ccccc3)cc2)n1` has a Ki of > 10 µM (Grm5 (Rattus norvegicus, UniProt P31424); ligand displacement, radioligand; cell membranes).
The Ki of `polymyxin B` is reported as 0.5 ± 0.2 µM (lipopolysaccharide (Klebsiella pneumoniae ATCC 13883); binding, displacement).
For `Nc1ccc(C=Cc2ccc(N)cc2S(=O)(=O)O)c(S(=O)(=O)O)c1`, the Ki was 36.7 µM (folA (Escherichia coli, UniProt P0ABQ4); inhibitor; from IC50, non-competitive).
`CCCCCCCCCCCCC/C=C/[C@@H](O)[C@H](CO)N(C)C` gave a Ki of 18 µM (SPHK2 (Homo sapiens, UniProt Q9NRA0); enzyme activity, inhibitor, FlashPlate).
With `Cc1cccc(C)c1OCC(=O)N[C@@H](Cc1ccccc1)[C@@H](O)C[C@H](Cc1ccccc1)NC(=O)[C@H](C(C)C)N1CCCNC1=O` the Ki was 0.0045 ± 0.0005 µM (Gag-Pol polyprotein, protease (Human immunodeficiency virus type 1 group M subtype B, UniProt P03367, C567A/C595A/L533I/L563I/L576V/Q507K); protease activity, inhibitor).
